Experimental data gathered from unrelated publications.
Every numbered part comes from another study and shows a few of its results, in no order. Substitutions count along the parent as printed.

Block 1 — method: RNA Bind-n-Seq; form: RNA; medium: in vitro; tested at: 200 nM; notes: whole 134-nt RNA, ends assumed; added: 150 mM LiCl; baseline: input library; reading: higher = stronger binding; library: 7-deaza-guanosine replaces G
Target: Ras GTPase-activating protein-binding protein 1, full length (G3BP1, Homo sapiens, UniProt Q13283)
Sequence of UniProt Q13283 (whole entry, looked up): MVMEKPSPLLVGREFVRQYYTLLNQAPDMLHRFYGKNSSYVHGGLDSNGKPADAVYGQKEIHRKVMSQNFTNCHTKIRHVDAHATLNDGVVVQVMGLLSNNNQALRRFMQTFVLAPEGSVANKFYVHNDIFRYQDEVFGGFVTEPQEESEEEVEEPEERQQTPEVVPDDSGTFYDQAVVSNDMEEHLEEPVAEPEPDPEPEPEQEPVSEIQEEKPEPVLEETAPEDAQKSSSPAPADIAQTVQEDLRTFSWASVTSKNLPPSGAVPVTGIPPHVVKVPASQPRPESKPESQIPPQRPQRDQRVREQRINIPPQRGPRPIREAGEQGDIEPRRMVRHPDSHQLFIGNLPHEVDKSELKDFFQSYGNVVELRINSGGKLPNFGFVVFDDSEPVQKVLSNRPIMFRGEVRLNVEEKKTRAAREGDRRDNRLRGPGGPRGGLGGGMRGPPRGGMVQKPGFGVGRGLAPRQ
Shared flanks, not repeated: GGGAGUUCUACAGUCCGACGAUC … UGGAAUUCUCGGGUGUCAAGG
For `AGUCCUGUGCUACACAUCGUAUGUACCGAAUCGGGUUUGGGUUUUUUUGGGUUUGGGAAAGUAUUAUGUUACGCCGUUCGGAUCUGCACU`, the log2 enrichment was -0.531.
`AGUCCUGUGCUACACAUCGUAUGUACCGAAUCGGGGUUUUUGGGUUUUUGGUUUUUGGAAAGUAUUAUGUUACGCCGUUCGGAUCUGCAC` gave a log2 enrichment of -0.325.
For `CUCAAGUCCUGUGCUACACAUCGUAUGUACCGAAUCGGAAAGGGAAAGGAAAGGAAAGUAUUAUGUUACGCCGUUCGGAUCUGCACUUCC`, the log2 enrichment was -0.135.
The log2 enrichment of `UGGGAGGUGGAUUUUGUUUCUUUUUUUAGCUCAUUUCCAGGGGUGGGAAUUUUUUUUUAAUAUGUGUCAUGAAUAAAGUUGUUUUUGAAA` is reported as 0.394.
For `GUCCUGUGCUACACAUCGUAUGUACCGAAUCAAAUUUAAAUUUUUUUAAAUUUUUAAAAAAGUAUUAUGUUACGCCGUUCGGAUCUGCAC`, the log2 enrichment was -2.75.
With `AGUCCUGUGCUACACAUCGUAUGUACCGAAUCGGAAAAAAAGGUUUGGUUUUUUUGGAAAGUAUUAUGUUACGCCGUUCGGAUCUGCACU` the log2 enrichment was -2.52.

Block 2 — method: RNA Bind-n-Seq; form: RNA; medium: in vitro; tested at: 100 nM; baseline: input RNA pool; reading: higher = stronger binding
Target: RING finger protein unkempt homolog, zinc fingers 1-6, SBP tag (UNK, Homo sapiens, UniProt Q9C0B0, residues 30-357)
Sequence of UniProt Q9C0B0 (30-357, looked up): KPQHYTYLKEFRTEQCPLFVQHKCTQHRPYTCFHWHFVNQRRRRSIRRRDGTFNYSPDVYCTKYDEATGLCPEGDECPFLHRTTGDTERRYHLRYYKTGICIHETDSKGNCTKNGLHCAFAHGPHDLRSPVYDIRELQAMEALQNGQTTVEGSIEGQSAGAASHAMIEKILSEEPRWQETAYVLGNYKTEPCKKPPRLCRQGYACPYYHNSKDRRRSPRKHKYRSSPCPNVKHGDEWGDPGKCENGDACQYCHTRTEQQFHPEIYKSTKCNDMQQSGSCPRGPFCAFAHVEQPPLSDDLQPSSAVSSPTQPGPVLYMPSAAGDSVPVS
Notes: RNA with constant flanks, vertebrate orthologous sites, ends assumed
Shared flanks, not repeated: GGGAGUUCUACAGUCCGACGAUC … CAACAGAGGAUUGAGCAUCA
For `UCUCUCAGUUAGCUGUGUCCAAAAUUGCUAUGAGGGUUGGAAACAUUGAUUAGUUUCAUGUAGAACUACACUGGCAGGUGCUCAAUUACCAUCAUAGCAAGGUCAAAUACCAUCACAGUA`, the bound/input enrichment was 1.36 ratio.
`UCCUCAACUUGUUCUAGCUUGUGAUCCCUCAAAGUUGGGUCAUACGUUAGUGCUAGAUACUAGAAAUUUUCACUUUUCCACUGAUCAGAGAGACAGACAUUAAAAACAAAAAUAGAAGAA` has a bound/input enrichment of 3.35 ratio.
For `UUACAGUCAUUGAUGGACUCUAUUUUUUUAUUAUUACUUGGACCUCGGUCGUUUUUAUACUAGCAACGAAAAAUGUCUUGUUUUAAUUUGCUUUUUUUGGGGGGUACGGGGUGGGAAGCA`, the bound/input enrichment was 0.842 ratio.
`CAGUGCCAUGGUUGAUGGGUCUGAGCUCAAAAAAGUGCGAUCCAAUUCGCGCAUUUACCAUCGCUACUUUCUCCUUGACGCCGACAUGCAGUCUUUGAGAUGGGAGCCUUCAAAGAAGGA` gave a bound/input enrichment of 0.149 ratio.
The bound/input enrichment of `CAGCAGAUUCUCUCAUAGGGAGAGCUGCACACAUUGCUGUUCUUGAUUCAGAAAUAUUUUUAGAAAAAUUCUUUCUUGUUGCUGCCCUAAAAUAUUUUCAGUAGGGAAAAGCAUUGUAAG` is reported as 0.345 ratio.
With `CACAUCUGGUGAUAUUUGGCCUGGCCUUUCAGCUUAUGAUAAUAGUCCAAGAUCACCUCAUAGUCCAUCACCUAUUGCCACACCACCUAGUCAGAGUUCAUCUUGCUCAGAUGCCCCCAU` the bound/input enrichment was 1.49 ratio.
With `GUUGCGAUCCCUUCAAUAUACACAGAAAACUAUCAAAGAAAAACUUGCGAGCAAUUGACUUGGAUGAUGCAACUUUUCUAAGUGCCAAGUUUGGAAGGCAGUUUGUACCUGGUUGGAAGC` the bound/input enrichment was 0.322 ratio.
`UCCUAGCGUCAUACCAGCAUACUAUCUAGUCAUACGUGCACAGCUUACCAAGUAACAGUCUCGUUGUAUUUUUAAUUUAAAAACUGCUUUUCCCAAGACUGAAAAAGAAGCUACGGUUUU` has a bound/input enrichment of 1.03 ratio.
For `UCCCACCUGUCUCACUGGCUCUCUGUUCGCUCAGUCCCUCCUUGGGCCUCUUAGGGGUUUUUCCAUUUUGUCCAGUUGGGAUUUUUUUUUAUUUUUUUAAAUUACCGAGAACUUCAAACA`, the bound/input enrichment was 1.93 ratio.
The bound/input enrichment of `UAUUUUCUUAUCUUAGGUAUCAUUGCCCAAUGCCCAAGAUCUUUUAUGUUCAGCUGACUGUAGGAAAUAAUGAAUUUUUUGGGGAAGGAAAGACUCGACAAGCUGCUAGACACAAUGCUG` is reported as 1.43 ratio.
With `AAGGAGAAGAGCUCACAAACUCAAAGGAAAACUAGUCAAGAGUUUCUAAUAGUUAAAAGCUAGGAAAGAUUAGGACAACUUUACAAAUGAGCAAUUAAAAAGAAAAAGGAUAUGGAAACU` the bound/input enrichment was 0.481 ratio.

Block 3 — method: universal PBM; form: double-stranded DNA, one strand shown; medium: in vitro; tested at: 600 nM; reading: higher = stronger binding
Target: Sal-like protein 4, full length isoform A (SALL4, Homo sapiens, UniProt Q9UJQ4, residues 1-1053)
Sequence of UniProt Q9UJQ4 (whole entry, looked up): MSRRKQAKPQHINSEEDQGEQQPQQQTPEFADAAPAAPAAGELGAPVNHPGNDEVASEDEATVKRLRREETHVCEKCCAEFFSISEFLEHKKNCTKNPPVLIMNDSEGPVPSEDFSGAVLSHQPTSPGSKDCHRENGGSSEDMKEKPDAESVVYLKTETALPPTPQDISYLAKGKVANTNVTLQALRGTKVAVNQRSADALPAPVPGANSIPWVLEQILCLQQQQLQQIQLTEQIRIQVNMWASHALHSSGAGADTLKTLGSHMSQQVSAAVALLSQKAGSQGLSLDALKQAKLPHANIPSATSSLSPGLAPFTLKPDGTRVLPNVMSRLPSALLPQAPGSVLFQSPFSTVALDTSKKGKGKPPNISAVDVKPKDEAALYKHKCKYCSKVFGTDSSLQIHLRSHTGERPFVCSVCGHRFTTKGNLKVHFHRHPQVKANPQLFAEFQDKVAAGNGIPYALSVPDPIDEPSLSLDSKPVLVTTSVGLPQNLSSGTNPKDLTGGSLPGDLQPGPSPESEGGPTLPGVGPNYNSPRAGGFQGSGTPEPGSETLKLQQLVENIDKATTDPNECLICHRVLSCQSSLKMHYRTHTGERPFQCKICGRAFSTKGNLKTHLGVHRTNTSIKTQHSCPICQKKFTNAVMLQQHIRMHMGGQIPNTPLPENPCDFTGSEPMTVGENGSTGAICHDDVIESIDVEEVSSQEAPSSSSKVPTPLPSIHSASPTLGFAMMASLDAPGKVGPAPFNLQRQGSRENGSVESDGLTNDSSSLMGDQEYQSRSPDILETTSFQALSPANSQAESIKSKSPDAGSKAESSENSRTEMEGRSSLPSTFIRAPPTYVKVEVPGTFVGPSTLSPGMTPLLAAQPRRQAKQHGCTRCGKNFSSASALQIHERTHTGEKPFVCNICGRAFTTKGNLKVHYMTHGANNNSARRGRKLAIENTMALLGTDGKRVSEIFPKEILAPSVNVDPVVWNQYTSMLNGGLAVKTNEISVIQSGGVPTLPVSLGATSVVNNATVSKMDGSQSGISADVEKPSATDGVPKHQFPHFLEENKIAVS
Notes: 8-mer, flanks averaged, mean of replicates
`GTGTTCCA` gave an E-score of 0.0338.
The E-score of `AGCGCCTC` is reported as -0.204.
`GATGATAC` gave an E-score of -0.00483.
The E-score of `GACCGCGC` is reported as -0.291.
`CTATTCGC` has an E-score of 0.0803.
`CTCATCCA` gave an E-score of 0.0653.
`CCGGCTAC` has an E-score of -0.275.
With `CACGTTCA` the E-score was 0.0406.
The E-score of `AACCGATG` is reported as -0.139.
`TGAACTAA` has an E-score of 0.167.
With `ACGCCTAA` the E-score was 0.0131.
For `ACTGGTAT`, the E-score was 0.00906.
`CAAGATAC` has an E-score of 0.146.
For `ATAAACCA`, the E-score was 0.245.
`ACCGTAGC` gave an E-score of -0.227.
The E-score of `GGTCACAA` is reported as -0.115.
The E-score of `AGGGCACC` is reported as -0.372.
`CGTTGAAC` has an E-score of -0.0738.
The E-score of `ACCGGCGC` is reported as -0.283.
`CATATTGC` gave an E-score of 0.215.
`AGACCGTC` has an E-score of -0.151.
The E-score of `AGTTGTTG` is reported as -0.0306.
`CTAGGAGA` gave an E-score of -0.0231.
`ATCGACTG` gave an E-score of -0.133.
`AACCATAA` has an E-score of 0.336.

Block 4 — method: RNAcompete; form: RNA; medium: in vitro; tested at: 20 nM; notes: 7-mer, probes averaged, single round; baseline: mean of 7-mers; reading: higher = stronger binding
Target: PABPC1L2, full length, GST fusion (mouse, UniProt A0ABA7IW68)
Target sequence (chain): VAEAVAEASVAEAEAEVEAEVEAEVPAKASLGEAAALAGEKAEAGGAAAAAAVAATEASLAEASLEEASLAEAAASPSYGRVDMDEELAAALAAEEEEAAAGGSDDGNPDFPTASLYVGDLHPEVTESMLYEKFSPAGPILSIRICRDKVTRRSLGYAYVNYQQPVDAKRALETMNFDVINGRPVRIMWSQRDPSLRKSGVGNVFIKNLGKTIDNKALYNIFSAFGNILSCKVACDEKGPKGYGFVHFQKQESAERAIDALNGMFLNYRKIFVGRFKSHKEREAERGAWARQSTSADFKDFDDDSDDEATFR
`GCUUAAU` has a 7-mer Z-score of -0.277.
The 7-mer Z-score of `CCAUUCU` is reported as -0.371.
For `UAUAAUG`, the 7-mer Z-score was -0.0971.
`UGUUGCU` has a 7-mer Z-score of -0.452.
The 7-mer Z-score of `UGGGGGU` is reported as 0.291.
The 7-mer Z-score of `UGAUAUU` is reported as -0.199.
The 7-mer Z-score of `UAUUCGU` is reported as -0.365.
`UUGUCUG` has a 7-mer Z-score of -0.364.
`AGCGUAA` has a 7-mer Z-score of 0.0116.
The 7-mer Z-score of `AUGCCGG` is reported as -0.0953.
`AUCGCGG` has a 7-mer Z-score of -0.0047.
`GUUUUCC` has a 7-mer Z-score of -0.536.
The 7-mer Z-score of `AUCAUGG` is reported as 0.213.
`CCCUAUA` has a 7-mer Z-score of -0.307.
The 7-mer Z-score of `UCGCAGC` is reported as -0.28.
With `GCACUAA` the 7-mer Z-score was 0.0442.
For `CCAGACA`, the 7-mer Z-score was 0.0623.

Block 5 — method: protein-binding microarray; form: double-stranded DNA, one strand shown; medium: in vitro; tested at: 250 nM; notes: 60-bp whole probe; added: salmon DNA 0.4 mg/ml; baseline: random background probes; reading: higher = stronger binding; shared flanks, not repeated: GCCTAGCAC … GTCTTGATTCGCTTGACGCTGCTG
Target: Interferon regulatory factor 5, full length, phosphomimetic (IRF5, Homo sapiens, UniProt Q13568-2, residues 1-514, K96S/S451D/S453D/S456D/S462D)
The log fluorescence of `GCAGATTGGGTTTCAGGGCTGTGCTAG` is reported as 0.246 z-score.
`TTACGACTGCTTATCCTTTAGTGCTAG` has a log fluorescence of 0.757 z-score.
`TTATAACTGAGTCTCGATTAGTGCTAG` has a log fluorescence of 0.979 z-score.
For `GGCTTTTTTTTTTTTTTTTTGTGCTAG`, the log fluorescence was 0.508 z-score.
With `TCATTTTTTTCATTATTACTGTGCTAG` the log fluorescence was 2.04 z-score.
`GACGGTCTCGTTTTCCTGACGTGCTAG` has a log fluorescence of 0.255 z-score.
`GACGGACTGCTACTGATGACGTGCTAG` gave a log fluorescence of -0.402 z-score.
`TTAGATATCGGTCTCGGTTAGTGCTAG` has a log fluorescence of 5.31 z-score.
`TTAGGTTTCGGGACTTGGTTAGTGCTA` gave a log fluorescence of 5.77 z-score.
With `TTAGATTTCGGTCTCGGTTAGTGCTAG` the log fluorescence was 7.98 z-score.
For `TTAGGACTGGGGTATCGATTAGTGCTA`, the log fluorescence was 1.82 z-score.
For `TTAGGTATCCTACTGCTTTGGTGCTAG`, the log fluorescence was -0.0876 z-score.
`GACGGTCTCGGTTCCGGGACGTGCTAG` has a log fluorescence of 0.497 z-score.
The log fluorescence of `GACCGTCTCGGTCTCGGGACGTGCTAG` is reported as -0.0836 z-score.
`GACGGCTTCCTTCTCCTGACGTGCTAG` gave a log fluorescence of -0.333 z-score.
For `CTAGGACTGGGTCTCGGTTAGTGCTAG`, the log fluorescence was -0.366 z-score.
The log fluorescence of `TCATCTTTACTTCACTCACTGTGCTAG` is reported as 0.91 z-score.

Block 6 — method: DHFR PCA, deep sequencing; medium: yeast; added: (+)-ABA 0.0091 µM; baseline: wild-type fitted maximum; reading: higher = stronger binding
Target: ABI1, truncated, D143A, DHFR fusion (Arabidopsis thaliana)
Notes: methotrexate growth selection, single substitutions
Starting sequence: PYL1, truncated, DHFR fusion (Arabidopsis thaliana); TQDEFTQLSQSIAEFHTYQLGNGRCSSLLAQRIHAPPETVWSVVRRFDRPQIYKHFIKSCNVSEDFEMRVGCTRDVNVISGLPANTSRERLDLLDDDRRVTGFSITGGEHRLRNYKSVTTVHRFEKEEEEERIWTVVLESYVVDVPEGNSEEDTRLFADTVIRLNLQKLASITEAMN
Under “relative binding score”, `T6K` is recorded as 53.5%.
Under “relative binding score”, `F56C` is recorded as 0.597%.
`N22F`: “relative binding score” 11.2%.
For `V78E`, “relative binding score” read -6.31%.
`V118K` — result for “relative binding score”: 2.27%.
Under “relative binding score”, `T73A` is recorded as 4.44%.
For `A170R`, “relative binding score” read 23.7%.
`L82I`: “relative binding score” 30.3%.
Under “relative binding score”, `N165H` is recorded as -1.72%.
`E129N`: “relative binding score” 18.2%.
For `A158N`, “relative binding score” read 22%.
Under “relative binding score”, `V142M` is recorded as 5.66%.
`V161Q`: “relative binding score” 35.4%.
For `M176A`, “relative binding score” read 2.42%.
